Published values pooled from the literature.
Numbered parts are unrelated; each lists some results of a single study. Substitutions count along the parent as printed.

Study 1 — target: CCNB2, cyclin fold, Cln2 fusion (human); method: yeast growth competition, sequencing; sample: yeast; setting: weak parent motif; baseline: not given; reading: higher = stronger binding
Starting sequence: RBL1 docking peptide (human); GSAKRRLFGEDPP; partner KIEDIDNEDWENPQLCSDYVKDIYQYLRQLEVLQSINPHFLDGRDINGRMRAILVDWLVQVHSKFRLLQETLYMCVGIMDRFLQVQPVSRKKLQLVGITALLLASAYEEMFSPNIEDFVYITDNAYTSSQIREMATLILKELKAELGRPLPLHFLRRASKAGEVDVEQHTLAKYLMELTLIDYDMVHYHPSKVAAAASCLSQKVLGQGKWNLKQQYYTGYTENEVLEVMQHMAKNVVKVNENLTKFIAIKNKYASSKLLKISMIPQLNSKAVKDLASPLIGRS
Under “normalised enrichment score”, `A3K` is recorded as 0.311.
For `G1N`, “normalised enrichment score” read -0.302.
Under “normalised enrichment score”, `F8M` is recorded as 0.13.
`R5V` — result for “normalised enrichment score”: -0.0531.
Under “normalised enrichment score”, `D11A` is recorded as 0.417.
Under “normalised enrichment score”, `L7A` is recorded as -0.13.

Study 2 — method: RNA Bind-n-Seq; molecule type: RNA; sample: in vitro; tested at: 365 nM; baseline: no-protein control; reading: higher = stronger binding
Target: RNA binding protein fox-1 homolog 2, RRM domain, GST-SBP tag (RBFOX2, Homo sapiens, UniProt O43251-10, residues 100-194)
Setting: natural RNA segment, single round, ends assumed
Constant ends, left off below: GGGAGUUCUACAGUCCGACGAUC … UGGAAUUCUCGGGUGCCAA
Construct (chain): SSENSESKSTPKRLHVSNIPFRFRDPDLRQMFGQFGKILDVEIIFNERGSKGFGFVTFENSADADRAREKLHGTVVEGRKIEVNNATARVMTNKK
Under “RBNS enrichment (R)”, `AGUUACUUCUUGUAAAAACUUUUAAGCCAUUUAUCAACAAGUUCUUGUUGACUCAGGGCAUAAUGAGUUCCUGAGACAUGCUCUUUUGGGGGCUGGGGCUUUAGCUAGAA` is recorded as 0.217.
For `AGGAUCUUACAACACAGCAAGUAGCAUAGAGCUCUUUCCUUCCUCUUUUUUGGGGAGGUUGGGGUCAGGGGUUGUUUCUUUGAGAUUUAAGUUUUCAUUUUUGAGGGGUA`, “RBNS enrichment (R)” read 0.673.
`UUCCUGCUAUAAUCCCUGAUGAAAACCUGACGGUGAACUCACUAAUAAACAAGACUGACUCCUUCUUAGCUUCUGGGGGUGAAUUGUGUGGACAGCAGAAUUGAGGCUGU`: “RBNS enrichment (R)” 1.3.
For `AGCCCUAGGGGCGUGUCAGCCGCACCUCUGGGACGGGCCCUUCCUUGCGGUGCUGCCGUCCUUUUGGGUUCUUGAUUUCUGGAUACAUGUAGCUUUGCCAGAUAUGUACU`, “RBNS enrichment (R)” read 0.425.
`AGAUGGAAUUACAGCAAAAUGUGCUCAAUGUAUGUGUCUGCUCACAACACUGGGAGAUGUGUUUGCCAGUAAGUUGCUCAUCACAAGAGCACCAGACUUGGGGGGUGUAA`: “RBNS enrichment (R)” 0.453.
For `GGGGUGGGUGUAGGGGCUUACAAAGCCUUACACAGGGCGAGGGGUUGGUGGGAGGGUUGGCACCUGCACACUCCAUCUCCUGCUCACCACCUGCCUCUAAUCUGAGCUGC`, “RBNS enrichment (R)” read 0.352.
`UUGAAAUGAAAACUAAGAGUUGUAAAACAAAGUAUUUUCUUGGGAAUAUUACUUUAACAUUCAGAUGGAUCAUAACUAAUUCGACUAGGGUGUUUUUCCUGAGUAGGAGU` — result for “RBNS enrichment (R)”: 0.362.
For `CUGCUGCCCGUCCUGUGCUGGGGGCAUGCUGGGACCAGCCGCACCCAGGCCCCAAUGCUUGUGUGUGGACCAGCGGCUGCAGCCUUCUAGCCCCUCCUCCCCGCGAGACU`, “RBNS enrichment (R)” read 2.29.

Study 3 — method: protein-binding microarray; molecule type: double-stranded DNA, one strand shown; sample: in vitro; tested at: 2540 nM top; setting: 60-bp whole probe; together with: salmon DNA 0.4 mg/ml; baseline: random background probes; reading: higher = stronger binding; constant ends, left off below: GCCTAGCAC … GTCTTGATTCGCTTGACGCTGCTG
Target: Interferon regulatory factor 3, full length, phosphomimetic (IRF3, Homo sapiens, UniProt Q14653, residues 1-427, S386D/S396D/S398D/S402D/T404D/S405D)
Construct (chain): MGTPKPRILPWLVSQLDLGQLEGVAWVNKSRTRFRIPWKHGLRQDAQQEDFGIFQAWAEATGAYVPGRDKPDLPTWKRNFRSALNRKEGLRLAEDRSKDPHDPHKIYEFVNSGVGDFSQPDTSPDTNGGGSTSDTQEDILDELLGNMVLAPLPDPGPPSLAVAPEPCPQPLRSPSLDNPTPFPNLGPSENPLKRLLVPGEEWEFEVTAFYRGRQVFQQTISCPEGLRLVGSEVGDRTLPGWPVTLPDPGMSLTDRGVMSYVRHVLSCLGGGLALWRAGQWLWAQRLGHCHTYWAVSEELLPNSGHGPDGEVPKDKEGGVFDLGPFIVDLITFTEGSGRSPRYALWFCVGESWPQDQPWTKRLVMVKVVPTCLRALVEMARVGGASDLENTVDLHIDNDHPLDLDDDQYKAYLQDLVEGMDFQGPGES
For `TAAGAACTGGGGTTTCGATTAGTGCTA`, “fitted relative affinity” read 1.27 z-score.
For `GCCGATTTCAGTTCCGAGACGTGCTAG`, “fitted relative affinity” read 3.55 z-score.
Under “fitted relative affinity”, `CTGCTCCTCTTTTTTTGGTAGTGCTAG` is recorded as 0.917 z-score.
For `TTAGATTTCGGGTACCGATTAGTGCTA`, “fitted relative affinity” read 2.13 z-score.
`TTAGAGTTCAGTCTCGATTAGTGCTAG`: “fitted relative affinity” 0.417 z-score.
`GTGGGAAACCGGAAAGGCAAAGTGCTA` — result for “fitted relative affinity”: 1.1 z-score.

Single results of other studies
For `PhoQ, residues 284 288 289 292 302 303 SIHMAM`, the fold induction was 10.8 (PhoP, residues 12 14 15 18 19 NMSFL (Escherichia coli, UniProt P23836); Sort-seq, item: YFP reporter; E. coli; PhoQ-PhoP variant library, together with: 10 µM Mg2+; baseline: high Mg2+ state, higher = stronger signaling).

For quick reference, copied from above (study 2):
Under “RBNS enrichment (R)”, `AGUUACUUCUUGUAAAAACUUUUAAGCCAUUUAUCAACAAGUUCUUGUUGACUCAGGGCAUAAUGAGUUCCUGAGACAUGCUCUUUUGGGGGCUGGGGCUUUAGCUAGAA` is recorded as 0.217.
For `AGGAUCUUACAACACAGCAAGUAGCAUAGAGCUCUUUCCUUCCUCUUUUUUGGGGAGGUUGGGGUCAGGGGUUGUUUCUUUGAGAUUUAAGUUUUCAUUUUUGAGGGGUA`, “RBNS enrichment (R)” read 0.673.
`UUCCUGCUAUAAUCCCUGAUGAAAACCUGACGGUGAACUCACUAAUAAACAAGACUGACUCCUUCUUAGCUUCUGGGGGUGAAUUGUGUGGACAGCAGAAUUGAGGCUGU`: “RBNS enrichment (R)” 1.3.
For `AGCCCUAGGGGCGUGUCAGCCGCACCUCUGGGACGGGCCCUUCCUUGCGGUGCUGCCGUCCUUUUGGGUUCUUGAUUUCUGGAUACAUGUAGCUUUGCCAGAUAUGUACU`, “RBNS enrichment (R)” read 0.425.
